# Experimental data gathered from unrelated publications.
# Parts stem from different laboratories: compare values within a part only.

# Series 1
# Target: Prothrombin, mature alpha-thrombin (F2, Homo sapiens, UniProt P00734)
# Method: aptamer microarray, sandwich
# Molecule type: DNA with 2'F-ANA
# Sample: in vitro
# Concentration: 200 nM
# Setting: whole 15-mer aptamer, many near background
# Added: Cy3 exosite-II aptamer, 400 nM
# Direction: higher = stronger binding
# Sequence: GGTTGGTGTGGTTGG
Modification,mean fluorescence intensity [a.u.]
2'F-ANA at 4 7 10 11 13,71.2
2'F-ANA at 1 2 3 4 5 10 11 14 15,94.2
2'F-ANA at 3 7 8 9 10 14,463
2'F-ANA at 1 2 3 6 8 11 12 13,319
2'F-ANA at 1 4 5 8 9 11,52.1
2'F-ANA at 2 4 7 8 9 10 12,138
2'F-ANA at 2 4 5 7 9 10 12 14,49.5
2'F-ANA at 1 2 3 4 5 6 13 14,49
2'F-ANA at 2 3 5 6 8 11 13,107
2'F-ANA at 1 10,82.1
2'F-ANA at 1 2 4 6 11 12 13 14,54.1
2'F-ANA at 1 2 5 6 7 11 12 14,45.6
2'F-ANA at 1 2 4 5 6 10 11 12 13 15,53
2'F-ANA at 1 2 6 8 9 10 11 12 13 14 15,84.7
2'F-ANA at 3 6 7 9 11 13,741
2'F-ANA at 1 3 4 8 9 10 13,55
2'F-ANA at 1 2 6 7 13 14,48.8
2'F-ANA at 1 8 9 11 12 13 14,62.5
2'F-ANA at 1 2 3 5 8 9 11 13 14,46.2
2'F-ANA at 1 4 5 6 8 10 11 15,54.3
2'F-ANA at 1 4 6 7 8 9 10 15,66.8
2'F-ANA at 3 9,1210
2'F-ANA at 4 5 10 11 14 15,60.5
2'F-ANA at 1 2 6 8 11 15,151
2'F-ANA at 3 5 10 11 12 14 15,53.4

# Series 2
# Target: Sal-like protein 4, full length isoform A (SALL4, Homo sapiens, UniProt Q9UJQ4, residues 1-1053)
# Chain of UniProt Q9UJQ4 (whole entry, looked up): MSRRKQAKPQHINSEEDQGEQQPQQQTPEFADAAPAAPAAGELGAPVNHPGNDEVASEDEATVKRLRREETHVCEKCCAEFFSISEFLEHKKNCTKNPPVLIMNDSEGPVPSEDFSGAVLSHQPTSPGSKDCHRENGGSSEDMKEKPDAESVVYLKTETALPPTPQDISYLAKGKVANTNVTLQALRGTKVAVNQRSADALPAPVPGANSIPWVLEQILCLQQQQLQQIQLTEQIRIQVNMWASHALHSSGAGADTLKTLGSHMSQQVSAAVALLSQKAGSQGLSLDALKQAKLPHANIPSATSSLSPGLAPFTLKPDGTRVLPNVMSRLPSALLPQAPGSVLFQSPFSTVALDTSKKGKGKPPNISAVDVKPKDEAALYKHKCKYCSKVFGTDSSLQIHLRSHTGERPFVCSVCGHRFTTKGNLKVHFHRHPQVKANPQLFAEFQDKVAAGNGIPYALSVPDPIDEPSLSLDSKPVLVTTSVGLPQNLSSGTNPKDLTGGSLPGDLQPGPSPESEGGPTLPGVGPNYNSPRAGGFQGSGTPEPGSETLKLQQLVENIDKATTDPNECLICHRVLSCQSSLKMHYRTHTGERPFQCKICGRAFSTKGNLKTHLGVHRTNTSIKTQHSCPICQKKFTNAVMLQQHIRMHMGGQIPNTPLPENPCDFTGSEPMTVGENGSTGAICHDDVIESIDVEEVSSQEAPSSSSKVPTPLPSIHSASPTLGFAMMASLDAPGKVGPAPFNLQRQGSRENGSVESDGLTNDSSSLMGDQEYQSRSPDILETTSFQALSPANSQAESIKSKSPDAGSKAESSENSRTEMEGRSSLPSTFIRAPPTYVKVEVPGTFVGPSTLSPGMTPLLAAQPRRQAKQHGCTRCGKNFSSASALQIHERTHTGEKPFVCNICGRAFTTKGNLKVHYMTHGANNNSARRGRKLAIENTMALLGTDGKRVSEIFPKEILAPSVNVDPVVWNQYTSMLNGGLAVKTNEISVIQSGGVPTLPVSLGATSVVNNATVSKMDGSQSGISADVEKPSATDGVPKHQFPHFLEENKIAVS
# Method: universal PBM
# Molecule type: double-stranded DNA, one strand shown
# Sample: in vitro
# Concentration: 600 nM
# Setting: 8-mer, flanks averaged, mean of replicates
# Direction: higher = stronger binding
Sequence,E-score
GAGATAGC,-0.0684
GCAGACGC,-0.245
GCTGTTGA,0.0314
GCGCCCCA,-0.387
AAAATGTG,0.251
CACAGTGA,-0.0388
AGAAGACG,-0.0245
ACTGGACA,-0.114
AACATAAG,0.267
CTTTGACA,0.107
GCTGCAGA,-0.192
CGACGCCG,-0.405
CGTTAAGA,0.00182
CTAATACC,0.0593
AAATAGTT,0.273
ACTAACGC,-0.00639
GACAAGAA,0.154
CGGTTTAG,-0.206
TCTAACCA,0.0544
ACACGAGA,-0.103
ATTTCTGC,0.274
ACCCTTGG,-0.208
TCGCGGAA,-0.125
CCGTAGCG,-0.284
ACGTGACC,-0.176

# Series 3
# Target: RNA binding protein fox-1 homolog 2, RRM domain, GST-SBP tag (RBFOX2, Homo sapiens, UniProt O43251-10, residues 100-194)
# Method: RNA Bind-n-Seq
# Molecule type: RNA
# Sample: in vitro
# Concentration: 365 nM
# Setting: natural RNA segment, single round, ends assumed
# Reference: no-protein control
# Direction: higher = stronger binding
# All sequences stand within: GGGAGUUCUACAGUCCGACGAUC … UGGAAUUCUCGGGUGCCAA
# Target sequence (chain): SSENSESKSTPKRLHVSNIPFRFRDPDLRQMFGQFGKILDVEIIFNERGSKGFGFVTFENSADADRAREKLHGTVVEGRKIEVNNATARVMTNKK
Sequence,RBNS enrichment (R)
UUCCUGUGUGGGGUUCAGCGUAGAAAACGCACCUCCAUCCCGCCCUUCCCACAGCAUUCCUCCAUCUUAGAUAGAUGGUACUCUCCAAAGGCCCUACCAGAGGGAACACG,0.535
UCCCACCCCCUCCCCCUGGGGGCAAAUCAGGACACAACAGAGGGCAGAGGCCCCAUUAGCUUUAAAAUGUAGCCCCAGGUUGGAGCUGGGAACACUGUACUGGCCACUUA,0.618
UCCCUGCCUGCACAAACCUACAUGUACAUACCAUGGAUUAGAGACACUUGCAGGACUGAAAGGCUGCUCUGGUGAGGCAGCCUCUGUUUAAACCGGCCCCACAUGAAGAG,4.05
UGAUGCUGUAUUUUCACAACUCUGAGGAAACGUCUGGGAACUCCUAGGGGUAGGCGAUUGACUGCCUGAUUUUAGAGCAGGGAGCCCGGCCCCUUCUUUUGUCUUCCUGG,0.302
CCAGACGAGGUCCUCACAGGAGAAGGACAGCUCUUCCCCACCCUGGGAUCUCAGGAGGGCAGCCACGGAGUGGGGAGGCCCCAGAUGCGCUGUGCCAAAGCCAGGUCCGA,0.444
AUUCAGUGGGCAAGUAAAUUAUGGACUGCAAAAUAAUGAUUUUUAUUCAAGAAAGCUUUAAAAGUUUUAUAUCCAGAUAUACAACCACAAUAAAGCAAAAUAACCUACUA,0.55
CAAGCUAACACUGAAAAAAAAAAUGACAAAUUAAUGUGUCCUAUUAUCCAGGCUACAUCAGGAGGUUGGACUUCAAUGCAGUGCAUUUCUAGAAACAGUUUGGUAAACAU,0.474
CAUUUUAGAAUAACAAGAACACCAAGAAUUACCCCUAAAACAGAGACCCUGUAUUUAAUCUACUUUGAUCAGAGAAGUAGAAUUUAUAACAGGUUAGCUAAAAUUGGGAG,0.481
GUGCAUAGUAAGACUGCCUGGCUAAAUUAGGCCUCACUGGCGAUAGAACAGACUUACUGAAGUUUAGGUAUAGUGAGCCACACUCCACUGCCAAGGUAGAGAACUGUGAG,0.352
GUACUACAUGUUACAUGCUGCAUACUGUAUGUUACACACUGCAUACUAUGUGUUAUACACUGCAUACACAUACUUCCUUUACCCAGAGAAAAGAAAUAAAAUUGAACCAA,1.66
CCUCCAUUGUCCCACGCACUCCUUGGCAGCAGAAUGCUGGCAGCUUGUGACCCUCAUGUUUCCUGUAAGUCUGUUUCAUGGUAGGGUUCAUACCUGCCUCAGCCUGACAG,0.274
AGGCCACCUCUCCCCGGGCCCCCGCGCCUCUGCCGGACACGGACCGGCCCCUCAGCCCCCACCGAGGACGCAGCCACUGGGGGGAAAGGGAGACACAGCGGACCCCGGCC,0.381

# Series 4
# Target: Ras GTPase-activating protein-binding protein 1, RRM domain (G3BP1, Homo sapiens, UniProt Q13283)
# Chain of UniProt Q13283 (whole entry, looked up): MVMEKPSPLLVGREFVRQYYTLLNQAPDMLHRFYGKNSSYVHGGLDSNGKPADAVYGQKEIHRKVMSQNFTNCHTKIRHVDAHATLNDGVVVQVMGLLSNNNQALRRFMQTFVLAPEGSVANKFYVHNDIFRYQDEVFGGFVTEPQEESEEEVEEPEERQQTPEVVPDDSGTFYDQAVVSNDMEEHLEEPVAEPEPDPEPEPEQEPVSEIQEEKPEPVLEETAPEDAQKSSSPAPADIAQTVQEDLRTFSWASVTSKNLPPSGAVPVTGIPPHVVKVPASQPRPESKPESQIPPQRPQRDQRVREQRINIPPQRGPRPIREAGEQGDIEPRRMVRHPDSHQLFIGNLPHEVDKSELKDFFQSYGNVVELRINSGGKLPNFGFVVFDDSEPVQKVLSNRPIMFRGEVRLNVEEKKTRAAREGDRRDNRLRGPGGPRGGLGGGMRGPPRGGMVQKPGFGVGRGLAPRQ
# Method: RNA Bind-n-Seq
# Molecule type: RNA
# Sample: in vitro
# Concentration: 1 µM
# Setting: whole 134-nt RNA, ends assumed
# Added: 150 mM KCl
# Reference: input library
# Direction: higher = stronger binding
# All sequences stand within: GGGAGUUCUACAGUCCGACGAUC … UGGAAUUCUCGGGUGUCAAGG
Sequence,log2 enrichment
UCAAGUCCUGUGCUACACAUCGUAUGUACCGAAUCGGGCCGGGGCCGGGGCCGGAAAGUAUUAUGUUACGCCGUUCGGAUCUGCACUUCC,-1.76
CAAGUCCUGUGCUACACAUCGUAUGUACCGAAUCGGUUUUGGGUUUUGGUUUUGGAAAGUAUUAUGUUACGCCGUUCGGAUCUGCACUUC,-0.221
UCCUCAAGUCCUGUGCUACACAUCGUAUGUACCGAAUCGGCGGCGGGCGGGAAAGUAUUAUGUUACGCCGUUCGGAUCUGCACUUCCAGC,-0.202
CCUGUGCUACACAUCGUAUGUACCGAAUCGGGGUGGGGUUUUUUUGGGGUUUUUUUGGGGAAAGUAUUAUGUUACGCCGUUCGGAUCUGC,0.444
CUCAAGUCCUGUGCUACACAUCGUAUGUACCGAAUCGGAGGAGGAAAAAAAGGAAAGUAUUAUGUUACGCCGUUCGGAUCUGCACUUCCA,-0.136
GCAGGAAGUAAAAACAAAUGGAAAUGCUUUGGAUAGUGGCAGGGGUGGGGGUUGCUAAGGAAAGGGUGGGAUGGGAGUGGGUAAAGAGUU,0.813
UCAAGUCCUGUGCUACACAUCGUAUGUACCGAAUCGGUGGUUUUUUUGGUUUGGAAAGUAUUAUGUUACGCCGUUCGGAUCUGCACUUCC,-0.26
ACCAUGCAGGUGGGCAAAUUUGGGAAGUGGGGCAAGGGGGGGAUAGGGAGGGGGGUAACACUUUGGGAACAGGUGGUCCCAGGUCGUUUC,-0.417
UCCUGUGCUACACAUCGUAUGUACCGAAUCGGGGAAAAAGGGAAAAAGGGAAAAAGGGGAAAGUAUUAUGUUACGCCGUUCGGAUCUGCA,0.145
UCAAGUCCUGUGCUACACAUCGUAUGUACCGAAUCGGAGGUUUUUGGUUUUUGGAAAGUAUUAUGUUACGCCGUUCGGAUCUGCACUUCC,-0.265
AGUCCUGUGCUACACAUCGUAUGUACCGAAUCGGGAAAAAGGGGAAAAAGGAAAAAGGAAAGUAUUAUGUUACGCCGUUCGGAUCUGCAC,-0.0661
UCCUGUGCUACACAUCGUAUGUACCGAAUCGGGGUUUGGGGUUUUUGGGGAAAAAGGGGAAAGUAUUAUGUUACGCCGUUCGGAUCUGCA,1.35
CCAACUCCUAUAAUUCCCUAUCUUUUAGUUUUAGUUGCAGAAACAUUUUGUGGUCAUUAAGCAUUGGGUGGGUAAAUUCAACCACUGUAA,-0.0833
CACAGACAACACGCACCCACACAGACACAGAGGGAAGGGGUUGGGAUGGGGACAGGGUGCACAGCAGGGCGGUGUAGGACCCCAGCCCCU,-0.15

# Mixed results
Molecule,target,assay,test system,setting,how to read,quantity,result
"PhoQ, residues 284 288 289 292 302 303 SSTLLI","PhoP, residues 12 14 15 18 19 DLLYY (Escherichia coli, UniProt P23836)","Sort-seq, refers to: YFP reporter",E. coli,"PhoQ-PhoP variant library, added: 10 µM Mg2+","reference: high Mg2+ state, higher = stronger signaling",fold induction,1.08

# Repeated from above (series 4):
Sequence,log2 enrichment
UCAAGUCCUGUGCUACACAUCGUAUGUACCGAAUCGGUGGUUUUUUUGGUUUGGAAAGUAUUAUGUUACGCCGUUCGGAUCUGCACUUCC,-0.26
CUCAAGUCCUGUGCUACACAUCGUAUGUACCGAAUCGGAGGAGGAAAAAAAGGAAAGUAUUAUGUUACGCCGUUCGGAUCUGCACUUCCA,-0.136
AGUCCUGUGCUACACAUCGUAUGUACCGAAUCGGGAAAAAGGGGAAAAAGGAAAAAGGAAAGUAUUAUGUUACGCCGUUCGGAUCUGCAC,-0.0661
UCCUCAAGUCCUGUGCUACACAUCGUAUGUACCGAAUCGGCGGCGGGCGGGAAAGUAUUAUGUUACGCCGUUCGGAUCUGCACUUCCAGC,-0.202
ACCAUGCAGGUGGGCAAAUUUGGGAAGUGGGGCAAGGGGGGGAUAGGGAGGGGGGUAACACUUUGGGAACAGGUGGUCCCAGGUCGUUUC,-0.417
